Measurements of several laboratories.
Protocols differ between the studies behind these lines. ± gives the spread as reported.
Cell line: Vero

Structure (SMILES) | assay | test system | setting | CC50
CC(C)C[C@H](NC(=O)OCc1ccccc1)C(=O)N[C@H](C=O)C[C@@H]1CCCNC1=O | cytotoxicity | – | – | > 100 µM
CCCCCCCCCC(=O)N[C@@H](Cc1c[nH]c2ccccc12)C(=O)N[C@H](CC(N)=O)C(=O)N[C@@H](CC(=O)O)C(=O)N[C@@H]1C(=O)NCC(=O)N[C@@H](CCCN)C(=O)N[C@@H](CC(=O)O)C(=O)N[C@H](C)C(=O)N[C@@H](CC(=O)O)C(=O)NCC(=O)N[C@H](CO)C(=O)N[C@@H]([C@H](C)CC(=O)O)C(=O)N[C@@H](CC(=O)c2ccccc2N)C(=O)O[C@@H]1C | MTT | – | 24 h | 0.74 ± 0.1 µg/mL
COc1ccccc1OCCNCC(O)COc1cccc2[nH]c3ccccc3c12 (stereo not drawn) | MTT | – | 72 h | 29.2 µM
CCC(CC)COC(=O)[C@H](C)N[P@](=O)(OC[C@H]1O[C@@](C#N)(c2ccc3c(N)ncnn23)[C@H](O)[C@@H]1O)Oc1ccccc1 | – | – | – | > 100 µM
CCCCCOc1ccc(-c2ccc(-c3ccc(C(=O)N[C@H]4C[C@@H](O)[C@@H](O)NC(=O)[C@@H]5[C@@H](O)[C@@H](C)CN5C(=O)[C@H]([C@@H](C)O)NC(=O)[C@H]([C@H](O)[C@@H](O)c5ccc(O)cc5)NC(=O)[C@@H]5C[C@@H](O)CN5C(=O)[C@H]([C@@H](C)O)NC4=O)cc3)cc2)cc1 | MTT | – | 24 h | 42 ± 3 µg/mL
CC(C)C[C@H](NC(=O)OCc1ccccc1)C(=O)N[C@@H](CC(C)C)C(=O)N[C@@H](CC1CCNC1=O)C(=O)C(=O)NC1CC1 (stereo partly drawn) | – | – | 5 (unit not given) | > 250 µM
O=c1[nH]c(=O)n([C@@H]2O[C@H](COCc3ccccc3)[C@@H](OCc3ccccc3)[C@H](OCc3ccccc3)[C@H]2I)cc1I | MTT | DMEM with 10% FBS | 72 h | > 50 µM
CC(C)(C)NCC(O)COc1cccc2c1CCC(=O)N2 (stereo not drawn) | MTT | – | 72 h | 133 to 400 µM
O=c1[nH]c(=O)n([C@@H]2O[C@H](COCc3ccccc3)[C@@H](OCc3ccccc3)[C@H](OCc3ccccc3)[C@H]2I)cc1F | MTT | DMEM with 10% FBS | 72 h | > 50 µM
CC(C)CCCCCCCCC[C@@H]1CC(=O)N[C@@H](CCC(=O)O)C(=O)N[C@@H](CC(C)C)C(=O)N[C@H](CC(C)C)C(=O)N[C@@H](C(C)C)C(=O)N[C@@H](CC(=O)O)C(=O)N[C@H](CC(C)C)C(=O)N[C@@H](CC(C)C)C(=O)O1 | MTT | – | 24 h | 0.61 ± 0.1 µg/mL
Cc1cn([C@@H]2O[C@H](COCc3ccccc3)[C@@H](OCc3ccccc3)[C@H](OCc3ccccc3)[C@H]2I)c(=O)[nH]c1=O | MTT | DMEM with 10% FBS | 72 h | > 50 µM
CCCCCCC#Cc1cncc(-c2nnc(Sc3ccc([N+](=O)[O-])cc3[N+](=O)[O-])n2C)c1 | – | – | 72 h | 28 ± 0.951 µM

Excerpt of the above:
Structure (SMILES) | assay | test system | setting | CC50
CCC(CC)COC(=O)[C@H](C)N[P@](=O)(OC[C@H]1O[C@@](C#N)(c2ccc3c(N)ncnn23)[C@H](O)[C@@H]1O)Oc1ccccc1 | – | – | – | > 100 µM
CCCCCOc1ccc(-c2ccc(-c3ccc(C(=O)N[C@H]4C[C@@H](O)[C@@H](O)NC(=O)[C@@H]5[C@@H](O)[C@@H](C)CN5C(=O)[C@H]([C@@H](C)O)NC(=O)[C@H]([C@H](O)[C@@H](O)c5ccc(O)cc5)NC(=O)[C@@H]5C[C@@H](O)CN5C(=O)[C@H]([C@@H](C)O)NC4=O)cc3)cc2)cc1 | MTT | – | 24 h | 42 ± 3 µg/mL
